Measurements from different studies.
Lines come from different studies, so protocols differ. ± marks the error that the study gave.

Substance	cell line	assay	setting	IC50
fluorouracil	NCM460	cell viability, MTS		44.6 ± 4.69 µM
CC1CCC2(CC1)OOCOCOOC1(CCC(C)CC1)OO2 (stereo not drawn)	HEK293	cytotoxicity, 7-AAD flow cytometry		14.3 ± 0.54 µM
Cc1ccc(-c2csc(N(CC3OC(n4c[n+](Cc5ccccc5)c5c(=O)[nH]c(NC(=O)c6ccccc6)nc54)C4OC(C)(C)OC34)P(=O)([O-])O)n2)cc1 (stereo not drawn)	HepG2	cell growth, SRB		> 100 µM
COc1cc(S(=O)(=O)F)cc(OC)c1OC	HCT-15	cell viability, CellTiter-Glo	72 h	> 1.5 µM
C1CCC2(C1)OOCOCOOC1(CCCC1)OO2	Jurkat	cytotoxicity, 7-AAD flow cytometry		6.33 ± 0.12 µM
Cc1cc(N(CCCl)CCCl)ccc1C=O	SN12K1	cell growth, inhibitor, MTT		10.4 µg/mL
C(CCCCCN1COOC2(CCCCCC2)OOC2(CCCCCC2)OOC1)CCCCN1COOC2(CCCCCC2)OOC2(CCCCCC2)OOC1	Jurkat	cytotoxicity, 7-AAD flow cytometry		1.56 ± 0.16 µM
cisplatin	compound-resistant NIH:OVCAR-3	cell viability, MTT	72 h	2.5 ± 1 µM
Cc1cc(N(CCCl)CCCl)ccc1C(=O)O	SN12K1	cell growth, inhibitor, MTT		9.35 µg/mL

Excerpt of the above:
Substance	cell line	assay	setting	IC50
Cc1ccc(-c2csc(N(CC3OC(n4c[n+](Cc5ccccc5)c5c(=O)[nH]c(NC(=O)c6ccccc6)nc54)C4OC(C)(C)OC34)P(=O)([O-])O)n2)cc1 (stereo not drawn)	HepG2	cell growth, SRB		> 100 µM
